Published values pooled from the literature.
Each line is one published result; not all experiments were run side by side. Values joined by “and” are separate records of one study, mostly repeats; a detail may differ. ± marks the error that the study gave.
U2AF2: U2AF2 148-342 (Homo sapiens, UniProt P26368)
UniProt P26368, sequence (whole entry, looked up): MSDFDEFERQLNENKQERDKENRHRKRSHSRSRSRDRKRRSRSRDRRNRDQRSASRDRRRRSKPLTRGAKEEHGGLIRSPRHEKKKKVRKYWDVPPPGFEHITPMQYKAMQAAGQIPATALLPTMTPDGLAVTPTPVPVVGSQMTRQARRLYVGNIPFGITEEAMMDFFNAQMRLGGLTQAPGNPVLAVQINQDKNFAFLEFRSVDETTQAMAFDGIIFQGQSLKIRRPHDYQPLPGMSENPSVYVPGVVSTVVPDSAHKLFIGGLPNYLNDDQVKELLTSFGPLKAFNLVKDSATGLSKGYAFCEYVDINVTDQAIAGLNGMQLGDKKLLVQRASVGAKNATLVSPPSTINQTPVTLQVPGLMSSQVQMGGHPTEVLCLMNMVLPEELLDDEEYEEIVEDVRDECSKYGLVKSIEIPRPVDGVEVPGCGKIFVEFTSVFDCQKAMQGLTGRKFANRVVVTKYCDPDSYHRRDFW
B1: PP4 regulatory subunit 1 (human); sequence looked up; chain MADLSLLQEDLQEDADGFGVDDYSSESDVIIIPSALDFVSQDEMLTPLGRLDKYAASENIFNRQMVARSLLDTLREVCDDERDCIAVLERISRLADDSEPTVRAELMEQVPHIALFCQENRPSIPYAFSKFLLPIVVRYLADQNNQVRKTSQAALLALLEQELIERFDVETKVCPVLIELTAPDSNDDVKTEAVAIMCKMAPMVGKDITERLILPRFCEMCCDCRMFHVRKVCAANFGDICSVVGQQATEEMLLPRFFQLCSDNVWGVRKACAECFMAVSCATCQEIRRTKLSALFINLISDPSRWVRQAAFQSLGPFISTFANPSSSGQYFKEESKSSEEMSVENKNRTRDQEAPEDVQVRPEDTPSDLSVSNSSVILENTMEDHAAEASGKPLGEISVPLDSSLLCTLSSESHQEAASNENDKKPGNYKSMLRPEVGTTSQDSALLDQELYNSFHFWRTPLPEIDLDIELEQNSGGKPSPEGPEEESEGPVPSSPNITMATRKELEEMIENLEPHIDDPDVKAQVEVLSAALRASSLDAHEETISIEKRSDLQDELDINELPNCKINQEDSVPLISDAVENMDSTLHYIHSDSDLSNNSSFSPDEERRTKVQDVVPQALLDQYLSMTDPSRAQTVDTEIAKHCAYSLPGVALTLGRQNWHCLRETYETLASDMQWKVRRTLAFSIHELAVILGDQLTAADLVPIFNGFLKDLDEVRIGVLKHLHDFLKLLHIDKRREYLYQLQEFLVTDNSRNWRFRAELAEQLILLLELYSPRDVYDYLRPIALNLCADKVSSVRWISYKLVSEMVKKLHAATPPTFGVDLINELVENFGRCPKWSGRQAFVFVCQTVIEDDCLPMDQFAVHLMPHLLTLANDRVPNVRVLLAKTLRQTLLEKDYFLASASCHQEAVEQTIMALQMDRDSDVKYFASIHPASTKISEDAMSTASSTY
UniProt P29055, sequence (whole entry, looked up): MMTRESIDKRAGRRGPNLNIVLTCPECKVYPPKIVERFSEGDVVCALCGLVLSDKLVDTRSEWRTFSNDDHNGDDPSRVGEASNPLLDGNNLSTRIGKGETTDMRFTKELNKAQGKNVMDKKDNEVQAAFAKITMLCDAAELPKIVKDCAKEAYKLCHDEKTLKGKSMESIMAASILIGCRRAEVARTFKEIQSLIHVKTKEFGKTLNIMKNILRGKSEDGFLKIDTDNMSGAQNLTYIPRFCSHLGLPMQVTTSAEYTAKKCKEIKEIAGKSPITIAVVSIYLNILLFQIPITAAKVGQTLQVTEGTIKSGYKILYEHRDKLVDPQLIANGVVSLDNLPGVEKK
UniProt P13393, sequence (whole entry, looked up): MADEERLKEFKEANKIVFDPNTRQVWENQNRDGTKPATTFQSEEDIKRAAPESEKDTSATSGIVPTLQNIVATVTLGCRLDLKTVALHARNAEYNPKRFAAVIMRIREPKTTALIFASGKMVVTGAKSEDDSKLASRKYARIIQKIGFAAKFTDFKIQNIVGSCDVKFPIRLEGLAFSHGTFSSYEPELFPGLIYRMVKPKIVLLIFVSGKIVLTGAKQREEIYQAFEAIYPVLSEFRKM

Substance | tested on | assay | system | conditions | how to read | measurement | result
MTVCNASQRQAHAQATAVSL | H1819 | phage binding | peptide | – | reference: targeting over control phage | selectivity ratio | 3.1 ± 2.7
UAAGUUUUA (ssRNA) | U2AF2 | sequencing of bound RNA | RNA | motif only | – | Kd | 17800 nM
GSGAGSETSV | construct, MBP fusion, human SCRIB, PDZ 3-4 | automated holdup | peptide, crude extract | concentration not given, uncorrected, unit not given | reference: biotin control resin, higher = stronger binding | binding intensity | 0.404
human GAPDH | CYB5R4 knockout human cells | PP4 interaction, 3xFLAG-PP4C IP-MS | – | concentration not given | reference: CYB5R4 KO over parental | log2 fold change | 2.61
Polymyxin B | Staphylococcus aureus | DiSC3(5) fluorescence | – | concentration not given, 36 min | higher = more depolarisation | membrane depolarisation | 638 a.u. and 593 a.u. and 873 a.u.
TTGTGCTACGGTCTCTCCACCCCCTGCTGCTGCTGTCAAGTCAATCGGTCC (dsDNA; 5'-amino-C6 primer) | SUA7 full length assumed (Saccharomyces cerevisiae, UniProt P29055) | array | double-stranded DNA, one strand shown | TFIIB alone | – | Kd | 0.81 ± 0.5 nM
Peginesatide | UT7/EPO | microarray, item: PLSCR1 mRNA (probe set 241916_at) | – | 20 nM, 90 min | reference: vehicle | mRNA level | 2.7 fold
B1 (PP4 regulatory subunit 1) | CYB5R4 knockout human cells | PP4 interaction, 3xFLAG-PP4C IP-MS | – | concentration not given | reference: CYB5R4 KO over parental | log2 fold change | -0.31
cotadutide | – | metabolomics, item: hepatic alanine | ob/ob mice on AMLN diet, NASH model, liver | dose not given | – | metabolite level | 1.22 ± 0.07 scaled intensity
GSGAGHETIV | construct, MBP fusion, human SCRIB, PDZ 3-4 | automated holdup | peptide, purified PDZ protein | concentration not given, unit not given | reference: biotin control resin, higher = stronger binding | binding intensity | 0.369
colistin | Acinetobacter baumannii | broth microdilution | clinical isolate RKI-No_32/16 | – | – | MIC | 2 µg/mL
human MSH6 | CYB5R4 knockout human cells | PP6 interaction, 3xFLAG-PP6C IP-MS | – | concentration not given | reference: CYB5R4 KO over parental | log2 fold change | -0.4
GSGAGKETSF | construct, MBP fusion, human SCRIB, PDZ 3-4 | automated holdup | peptide, purified PDZ protein | concentration not given, unit not given | reference: biotin control resin, higher = stronger binding | binding intensity | 0.606
human alpha-actinin-2 | PP6C (human) | co-immunoprecipitation, IP-MS | CYB5R4 knockout cells | concentration not given | reference: CYB5R4 knockout over parental | log2 fold change | -0.36
GGGCUUACU (ssRNA) | U2AF2 | sequencing of bound RNA | RNA | motif only | – | Kd | 350 nM
TGGATCAATCGAGAATTCCGCGCAAGTGGTATGGATCAAGTCAATCGGTCC (dsDNA; 5'-amino-C6 primer) | SPT15 full length assumed (Saccharomyces cerevisiae, UniProt P13393) | array | double-stranded DNA, one strand shown | TBP alone | – | Kd | 2.98 ± 0.38 nM

Excerpt of the above:
Substance | tested on | assay | system | conditions | how to read | measurement | result
MTVCNASQRQAHAQATAVSL | H1819 | phage binding | peptide | – | reference: targeting over control phage | selectivity ratio | 3.1 ± 2.7
human MSH6 | CYB5R4 knockout human cells | PP6 interaction, 3xFLAG-PP6C IP-MS | – | concentration not given | reference: CYB5R4 KO over parental | log2 fold change | -0.4
